# Assay results gathered from unrelated publications.
# Numbered parts are unrelated; each lists some results of a single study. “And” joins repeats or separate records; there may be more than shown.
# UniProt Q07912, sequence (whole entry, looked up): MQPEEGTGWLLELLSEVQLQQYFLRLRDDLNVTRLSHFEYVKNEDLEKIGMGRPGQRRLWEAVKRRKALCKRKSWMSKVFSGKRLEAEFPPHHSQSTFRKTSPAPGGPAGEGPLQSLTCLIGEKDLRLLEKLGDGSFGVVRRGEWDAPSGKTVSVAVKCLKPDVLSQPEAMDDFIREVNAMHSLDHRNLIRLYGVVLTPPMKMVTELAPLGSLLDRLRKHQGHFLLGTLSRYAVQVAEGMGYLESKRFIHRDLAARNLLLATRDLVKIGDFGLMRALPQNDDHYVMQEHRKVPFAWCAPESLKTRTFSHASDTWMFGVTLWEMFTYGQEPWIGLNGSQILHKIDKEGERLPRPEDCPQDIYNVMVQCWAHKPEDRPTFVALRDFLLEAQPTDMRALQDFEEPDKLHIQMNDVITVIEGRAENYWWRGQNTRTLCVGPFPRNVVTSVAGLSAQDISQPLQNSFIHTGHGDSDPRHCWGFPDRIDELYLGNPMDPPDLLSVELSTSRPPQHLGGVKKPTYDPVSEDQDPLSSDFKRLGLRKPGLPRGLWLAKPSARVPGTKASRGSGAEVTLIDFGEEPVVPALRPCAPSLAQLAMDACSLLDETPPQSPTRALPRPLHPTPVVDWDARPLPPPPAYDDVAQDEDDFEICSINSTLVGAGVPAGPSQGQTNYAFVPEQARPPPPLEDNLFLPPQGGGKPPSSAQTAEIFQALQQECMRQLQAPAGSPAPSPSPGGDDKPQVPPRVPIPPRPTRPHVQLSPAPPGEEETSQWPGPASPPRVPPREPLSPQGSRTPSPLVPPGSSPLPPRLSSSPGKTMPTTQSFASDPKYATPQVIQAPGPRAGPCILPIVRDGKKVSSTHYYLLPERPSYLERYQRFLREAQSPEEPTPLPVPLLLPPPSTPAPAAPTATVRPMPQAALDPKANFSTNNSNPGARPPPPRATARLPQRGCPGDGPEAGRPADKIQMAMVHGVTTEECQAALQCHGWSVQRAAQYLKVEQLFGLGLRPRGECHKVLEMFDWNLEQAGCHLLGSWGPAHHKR

# Sample 1
# Target: Hepatocyte nuclear factor 3-beta, forkhead domain (FOXA2, Homo sapiens, UniProt Q9Y261, residues 142-269)
# Method: protein-binding microarray
# Form: double-stranded DNA, one strand shown
# Medium: in vitro
# Tested at: not given
# Setting: k-mer, scored over probes, only values ≥0.25
# Direction: higher = stronger binding
# Target sequence (chain): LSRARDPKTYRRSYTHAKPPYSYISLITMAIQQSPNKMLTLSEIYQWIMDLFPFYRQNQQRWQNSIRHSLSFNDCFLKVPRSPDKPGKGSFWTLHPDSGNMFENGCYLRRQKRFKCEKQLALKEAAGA
Sequence,E-score
CGAGTATA,0.265
ACCATTAA,0.273
CATATTTA,0.428
ACAATCAT,0.335
ATGTATGA,0.289
CACAACTA,0.278
TAACGTAA,0.268
TACACAGA,0.287

# Sample 2
# Target: 5-hydroxytryptamine receptor 1A (HTR1A, Homo sapiens, UniProt P08908)
# Read-out: ligand displacement
# Method: radioligand
# Tested at: 10 µM
Structure (SMILES),inhibition [%]
CN(c1ccnc(CNc2nc(Nc3ccc4c(c3)CC(=O)N4)ncc2C(F)(F)F)n1)S(C)(=O)=O,-13.1
CS(=O)(=O)c1cc(C2(NC(=O)c3cncc4c3cnn4-c3ccc(F)cc3)CC2)ccn1,-9.71
Cc1c(NC(=O)c2cc(C(N)=O)nc3cc(F)ccc23)c(C(F)(F)F)nn1Cc1ccc(C#N)cc1,-3.47
C[C@@]1(Cc2ccc(C#N)cc2)C(=O)N(c2cc(Cl)cc(Cl)c2)c2ncc(C(=O)NC3(c4nc(C5CCC5)no4)CC3)n21,-16.6
Cc1cc(Nc2nccc(C)n2)cc(-c2cnc([C@@]3(O)CC[C@H](C(=O)O)C(C)(C)C3)s2)c1,-0.0778
C[C@@H](NC(=O)Nc1cc2[nH]ncc2c(CO)n1)c1ccccc1,-1.87
Cn1cncc1[C@@](O)(COc1ccc(C#N)cc1-c1ccc(OC(F)(F)F)cc1)c1ccc(C#N)cc1,-6.52
COc1cc(-c2cn(C3CCc4ccccc4N(CC(F)(F)F)C3=O)nn2)ccc1-n1ccc(C)n1 (centres unmarked),1.18
COc1ccc2c(O[C@@H]3C[C@H]4C(=O)N[C@]5(C(=O)O)CC5/C=C\CCCCC[C@H](NC(=O)OC5CCCC5)C(=O)N4C3)cc(-c3csc(NC(=O)C(C)C)n3)nc2c1C (some centres unmarked),-6.16
CCC(=O)N[C@H]1CC[C@@H](C(=O)N(C)c2ccc(-c3nc4ccccc4o3)cc2)C1,19.5
COc1cccc(NC(=O)c2nc3scc(CN(C)Cc4ccccc4)c3c(=O)[nH]2)c1,15.8
CN(C)C(=O)Cn1cc(-c2nc([C@@](C)(c3ccc(-c4cnc(N)nc4)cc3)C3CC3)no2)cn1,6.78
CN1CCN(c2cnc3c(C4CCN(C(=O)c5ccc(OC(F)(F)F)cc5N)CC4)ncnc3c2)CC1,7.38
CC(C)(C)OC(=O)N1CCCC1CNC1CCC(c2cc(F)ccc2F)(S(=O)(=O)c2ccc(Cl)cc2)CC1 (centres unmarked),66.3
CSc1cccnc1N1CCN(Cc2nc3ccccc3[nH]2)CC1,81.6
CCOc1cc(N2C3COCC2CN(C(=O)[C@H]2C[C@H](O)CN2c2ccc(Cl)cc2)C3)ccc1Cl,-9.03
C[C@@H](c1cccc(C#N)c1)n1cc(Cl)cc(C(N)=O)c1=N,1.02

# Sample 3
# Host: human
# Medium: microsomes or S9
# Tested at: 2 µM
# Time: 0.5 h
SMILES,remaining compound
CCCc1nnsc1C(=O)NC1CC(=O)N(C2CC2)C1 (centres unmarked),71.6%
COCC1COc2cc3ncnc(Nc4ccc(Br)cc4F)c3cc2O1 (centres unmarked),27.7%
Cc1nn(-c2ccccc2)c(N2CCCCC2)c1C=C(c1nc2ccccc2s1)c1nc2ccccc2s1,15.4%

# Sample 4
# Structure (SMILES): c1ccc(Oc2ccc(Nc3c4c(nc5ccccc35)CCC4)cc2)cc1
# Method: resazurin
cell line,tested at,time,setting,cytotoxicity
J774.1,66.66 µM,64 h,,92%
RAW264.7,0.00332 µM,64 h,,-7% and -6%
HEK293,0.0066 µM,,10% serum,9% and 4%

# Further values, each from its own experiment
SMILES,tested on,test,system,conditions,how to read,endpoint,result
CC(C)n1cnc(-c2ccc(F)cc2)c1-c1ncc(C(=O)Nc2ccc(N3CCN(C)CC3)cc2)[nH]1,,phase 2a trial,idiopathic pulmonary fibrosis patients,"dose not given, adverse event grade 5, all dose arms pooled",,patients with dyspnoea,0%
CCN(CC)CC1CCCCN1CC(=O)N1c2ccccc2C(=O)Nc2cccnc21 (centres unmarked),mouse MPNST tumor cells,"high-content immunofluorescence imaging, refers to: nuclear SOX9",,"10 µM, 12 h, mean of 2 replicates","baseline: DMSO control, higher = more nuclear SOX9",nuclear SOX9 intensity,106 % of DMSO
C[C@H]1CC[C@H](n2c3cnccc3c3cnc(Nc4ccc5c(n4)CCN(C(=O)CO)C5)nc32)CC1,"Activated CDC42 kinase 1 (TNK2, Homo sapiens, UniProt Q07912)","binding, competition with immobilised ligand",,1 µM,,remaining binding,88%
CC(CN1c2ccccc2Sc2ccccc21)N(C)C (centres unmarked),UACC-903 melanoma,,,,,IC50,17.4 µM

# For quick reference, copied from above (sample 2):
Structure (SMILES),inhibition [%]
C[C@@H](NC(=O)Nc1cc2[nH]ncc2c(CO)n1)c1ccccc1,-1.87
COc1ccc2c(O[C@@H]3C[C@H]4C(=O)N[C@]5(C(=O)O)CC5/C=C\CCCCC[C@H](NC(=O)OC5CCCC5)C(=O)N4C3)cc(-c3csc(NC(=O)C(C)C)n3)nc2c1C (some centres unmarked),-6.16
CS(=O)(=O)c1cc(C2(NC(=O)c3cncc4c3cnn4-c3ccc(F)cc3)CC2)ccn1,-9.71
C[C@@H](c1cccc(C#N)c1)n1cc(Cl)cc(C(N)=O)c1=N,1.02
Cc1c(NC(=O)c2cc(C(N)=O)nc3cc(F)ccc23)c(C(F)(F)F)nn1Cc1ccc(C#N)cc1,-3.47
